Assay results collected from several papers.
Each line is one published result; not all experiments were run side by side. Several values in a cell are separate wells, animals, samples, runs or records. ± marks the error that the study gave.

NCCCS(=O)(=O)O
normalised MST signal (Sodium- and chloride-dependent taurine transporter (SLC6A6, Homo sapiens, UniProt P31641, G62A); binding, microscale thermophoresis; 244 nM, room temperature, together with: 50 nM labelled protein; higher = more binding): 0.0303

COc1cc(N2CCC(N3CCN(C)CC3)CC2)ccc1Nc1ncc(Cl)c(Nc2ccccc2P(C)(C)=O)n1
protein level (ALK tyrosine kinase receptor/Echinoderm microtubule-associated protein-like 4 (Homo sapiens, UniProt Q9HC35+Q9UM73); degrader, immunoblotting, item: ALK tyrosine kinase receptor/Echinoderm microtubule-associated protein-like 4; Ba/F3 EML4-ALK; concentration not given, 1 h, unit not given; reference: untreated): 1.13 and 1.09 and 0.932

CCCCCCCCCCCC(=O)O
binding (Peroxisome proliferator-activated receptor alpha (Ppara, Mus musculus, UniProt P23204, F272I); intrinsic fluorescence quenching; concentration not given): no binding

CCOC(=O)C1=C(CN2CCC[C@@H]2C(=O)Nc2cccc(B(O)O)c2)NC(c2nccs2)=N[C@H]1c1ccc(F)cc1Br
intracellular capsid protein level (Capsid protein (C, Hepatitis B virus genotype D subtype ayw, UniProt P03146); immunoblot; HepG2 expressing HA-HBc, Hepatitis B virus; concentration not given, 3 days, non-toxic concentrations): decreased

O=c1nc(SCc2cc(F)cc(C(F)(F)F)c2)nc(SCc2ccc3sccc3c2)[nH]1
ATP hydrolysis rate (DNA topoisomerase 2-alpha (TOP2A, Homo sapiens, UniProt P11388); ATPase activity; 7.8 µM, together with: ATP 0.25 mM): 1.15 µM/min and 1.23 µM/min

CC(C)C[C@H](NC(=O)C[C@H](O)[C@H](CC(C)C)NC(=O)[C@H](Cc1c[nH]cn1)NC(=O)CNC(=O)[C@@H](NC(=O)[C@H](C)NC(=O)[C@H](Cc1c[nH]c2ccccc12)NC(=O)[C@H](CCC(N)=O)NC(=O)[C@@H](Cc1ccccc1)NC(=O)COCCOCCNC(=O)CCC(C(=O)O)N1CCN(CC(=O)O)CCN(CC(=O)O)CCN(CC(=O)O)CC1)C(C)C)C(N)=O (stereo partly shown) [lutetium-177 labelled]
tissue uptake (BALB/c nu/nu mice, brain; intravenous, 250 pmol, 1 h, together with: PA 300 µg): 0.03 ± 0.01 %ID/g

O=C(Nc1ccc(C2CCCCC2)cc1)c1cn[nH]c1
hepatic clearance (cryopreserved human hepatocytes; 1 µM): 17 mL/min/kg

Cn1cc(-c2ccc(-c3cncc(Cl)c3N3CCC4(CCNC4=O)CC3)cc2)cn1
log2 fold change (COLO 205; gene expression, microarray, item: LAMP3 mRNA; concentration not given, 2 h; reference: untreated cells): 1.82

CC1(C)CC2(C)OC(=O)NC2(C)c2ccccc21 (stereo not shown)
log fold enrichment (Transcription intermediary factor 1-beta, PHD-bromodomain (TRIM28, Homo sapiens, UniProt Q13263); binding, affinity selection mass spectrometry; reference: other proteins in batch): -0.0793

[N-]=[N+]=NCC(=O)N[C@H]1[C@H]([C@H](O)[C@H](O)CO)O[C@@](OC[C@H]2O[C@@H](Oc3ccc([N+](=O)[O-])cc3)[C@H](O)[C@@H](O)[C@H]2O)(C(=O)O)C[C@@H]1O
kcat (Sialidase-2 (Homo sapiens, UniProt Q9Y3R4); substrate; 10 min, pH 5.0, 37 °C): 0.13 ± 0.02 s⁻¹

O=C(Nc1ccc(C2CCCCC2)cc1)[C@H]1CC1(F)F
hepatic clearance (hepatocyte stability; cryopreserved mouse hepatocytes; 1 µM): 78 mL/min/kg

CC[C@H](C)[C@H](NC(=O)[C@H](Cc1ccccc1)NC(=O)[C@H](CCC(=O)O)NC(=O)[C@H](CCCNC(=N)N)NC(=O)[C@H](C)NC(=O)[C@H](C)NC(=O)[C@H](CCC(N)=O)NC(=O)[C@H](CCC(=O)O)NC(=O)[C@H](CCC(=O)O)NC(=O)[C@H](CC(C)C)NC(=O)[C@H](Cc1ccc(O)cc1)NC(=O)[C@H](CO)NC(=O)[C@H](CO)NC(=O)[C@@H](NC(=O)[C@H](CC(=O)O)NC(=O)[C@H](CO)NC(=O)[C@@H](NC(=O)[C@H](Cc1ccccc1)NC(=O)[C@@H](NC(=O)CNC(=O)[C@H](CCC(=O)O)NC(=O)[C@H](C)NC(=O)CCc1cnc[nH]1)[C@@H](C)O)[C@@H](C)O)C(C)C)C(=O)N[C@@H](C)C(=O)N[C@@H](Cc1c[nH]c2ccccc12)C(=O)N[C@@H](CC(C)C)C(=O)N[C@H](C(=O)N[C@@H](CCCCNC(=O)COCCOCCNC(=O)COCCOCCNC(=O)CC[C@H](NC(=O)CCCCCCCCCCCCCCCCC(=O)O)C(=O)O)C(=O)NCC(=O)N[C@@H](CCCNC(=N)N)C(=O)N[C@@H](CCCCNc1c(NCCCCCN(O)C(=O)CCC(=O)NCCCCCN(O)C(=O)CCC(=O)NCCCCCN(O)C(C)=O)c(=O)c1=O)C(=O)NCC(=O)NCC(=O)N[C@@H](CO)C(=O)N[C@@H](CCCCNc1c(NCCCCCN(O)C(=O)CCC(=O)NCCCCCN(O)C(=O)CCC(=O)NCCCCCN(O)C(C)=O)c(=O)c1=O)C(=O)O)C(C)C
fold potency loss (Glucagon-like peptide 1 receptor (GLP1R, Homo sapiens, UniProt P43220); agonist, CRE luciferase reporter; BHK cells; metal-free DFO conjugate, together with: 0% HSA; reference: parent peptide): 3.9

O=S(=O)(O)O
reaction velocity (GUK1 (Homo sapiens, UniProt Q16774); enzyme activity, NADH-coupled; 5 mM, together with: ATP 250 µM): 0.101 µM/s and 0.0569 µM/s and 0.0835 µM/s
